# Experimental data pooled from the literature.
# Every numbered part comes from another study and shows a few of its results, in no order.

# Study 1
# Target: Histone acetyltransferase KAT6A, winged helix 2, GST fusion (KAT6A, Homo sapiens, UniProt Q92794, residues 85-181)
# Technique: protein binding microarray
# Form: double-stranded DNA, one strand shown
# Medium: in vitro
# Tested at: not given
# Notes: 8-mer, flanks averaged, mean of 2 arrays, mostly near background
# Relative to: not given
# Direction: higher = stronger binding
# Residues (chain): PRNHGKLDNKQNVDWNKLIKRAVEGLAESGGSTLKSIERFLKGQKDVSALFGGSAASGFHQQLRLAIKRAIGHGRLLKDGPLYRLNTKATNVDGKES
Oligonucleotide,E-score
AGGAGGCG,-0.0254
CATTCGAA,0.0107
CCTGGGTC,0.0638
ATCACAAG,-0.0346
AACCGTTC,-0.0183
CACTCTTA,-0.0103
AAATGCCT,0.0656
CTCGACCC,0.0615
CCAAATCA,-0.0339
CGCCACGA,0.0732
CGGGCCAA,-0.0203
CCTCACAC,0.05
AGCCTGGC,0.0466
AGAGCATC,0.0654
CCATACAA,-0.164
AAGAAAGC,0.0715
ATAACTAT,-0.149
CTTTCGCC,0.0483
CGTGACTC,-0.152
CCGACACA,0.0634
ACCTCTTC,0.0611
TCGCTGCA,-0.051
AACATGTA,-0.0573
TAATCTGA,-0.0352
CAGACGCA,0.176

# Study 2
# Target: RING finger protein unkempt homolog, zinc fingers 1-6, GST-SBP tag (UNK, Homo sapiens, UniProt Q9C0B0, residues 30-357)
# UniProt Q9C0B0, sequence (30-357, looked up): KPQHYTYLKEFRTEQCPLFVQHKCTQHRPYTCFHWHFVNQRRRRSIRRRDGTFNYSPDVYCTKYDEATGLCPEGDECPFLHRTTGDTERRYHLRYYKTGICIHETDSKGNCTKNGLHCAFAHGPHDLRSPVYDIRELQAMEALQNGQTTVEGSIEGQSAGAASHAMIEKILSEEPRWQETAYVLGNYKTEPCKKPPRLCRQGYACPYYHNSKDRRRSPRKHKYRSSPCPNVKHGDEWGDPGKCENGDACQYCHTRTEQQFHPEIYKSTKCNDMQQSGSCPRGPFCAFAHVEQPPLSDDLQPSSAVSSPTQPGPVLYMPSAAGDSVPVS
# Technique: RNA Bind-n-Seq
# Form: RNA
# Medium: in vitro
# Tested at: not given
# Notes: RNA with constant flanks, ends assumed
# Relative to: input RNA pool
# Direction: higher = stronger binding
# Constant ends, left off below: GGGAGUUCUACAGUCCGACGAUC … CAACAGAGGAUUGAGCAUCA
Oligonucleotide,bound/input enrichment [ratio]
CAAGAUUUUCAGAUGUUAAGUAGAAUAUGGACUCAUCCUUGGUGUUUGCAGCUAGACUACAUCCGCAAAGAAAAUAAGGGUUAUUUUGAUGAAGACAGUAUGGAUGAAUUUAUAGCCUCA,0.268
GGCUACCUGGUCUCCGUGGAUGGCUACAUGAACAUGCAGCUUGCAAAUACAGAAGAGUACACCGAUGGGGCGCUGUCUGGACAUCUGGGCGAAGUUCUAAUAAGGUGUAAUAAUGUCCUC,0.0789
AAAUUCUACAAACAAGUUAUUGAUAAAGGCCAAACAAUUCCAGAGGAUAUCUUAGGAAAGACCGCAGUUUCUAUUGUAAAAGCGUUAGAACAUUUACACAGUAAGCUGUCUGUUAUCCAU,0.299
UCCAGACAGGAAGAACAAAACCCAUUCUAGCACUUUCAUUUUUAAAAAAAAAAAGGUUUACCGCUUUUUGUUCCGCCCUCCUCCUCCCCAUUUCACAAUGUCCAUUCCUUAAGAAGGGUU,7.62
CCCACCCACCUACCAGCACUUAAGGCCUAGGACACAAGGUCUGUGUGGCCUCCCAGGCUGCCGGUACCCUCAUCUGCAGAAAAUCAGGGACUAGGAGCAGAGCCCCUCACUGAGCAUGUC,0.172
AAAAUAGACUAUGGUGAAUACAUGGAUAAAAAUAAUGUGAGGCGACAAGCAACAACAAUCACCGCUGAUAAUAUUAUAUUUCUGAGUGACCAGACGAAAGAGAAGGAGUAGAAAGGAUGA,0.829
AUUAUUCAGGUUGACAAAGCUUAUGACUACCUCAUUCAAAAUACAUCAUUUGCUAACAGAUCCGGUUUUACAGUUACUGUUGGAAAUAACCGUGGUAUCUACCUCCGAGAUCCUGUCCAG,0.135
AGGUGCAAAGAAAAAGACUUGGAUGAUACCUGCAUGCUGCAUAAGAAGUCAGAAAGCCCAUUCCGAGAAACAGAACCUCUGGUGUCACCACACCAAGAUAAACUCAUGUCUAUGCCAGUU,0.179
ACUGGAGGGGCAGCCUCUGUGAAGCAGCACCAUUCAAGUGCCCACAACAAAGACAUUGCUUCCGGGGUAUUUGAUGUGGUGGUGACAGACCCCUCAUGCCCAGCCUCGGUGCUCAAGUGU,0.112
UUUUUGGGAAUUGCUUACAUCACUAUUGGAUCCAUCUCUUUCCUUCUGGGAGUUGUACUGCCCGUAAUUAAUCAUAAAUAUAGAAACAGUAGUAACACUGCUGACAUCACCAUUUAAUUU,2.29
CUCUUCUUGAAUUCUACCGCAGGGACAAGUGGAGGAGCUUAUGAUCAUAGCUAUGCCGAGCUCUUUUUGAAUUCUACAGCAGGGGCAAGUGGUGGUGCUUACGGUAGCCAGAUGAUGGGA,0.507

# Study 3
# Target: Sal-like protein 4, full length isoform B (SALL4, Homo sapiens, UniProt Q9UJQ4-2, residues 1-616)
# Technique: universal PBM
# Form: double-stranded DNA, one strand shown
# Medium: in vitro
# Tested at: not given
# Notes: 8-mer, flanks averaged, mean of replicates
# Direction: higher = stronger binding
# Residues (chain): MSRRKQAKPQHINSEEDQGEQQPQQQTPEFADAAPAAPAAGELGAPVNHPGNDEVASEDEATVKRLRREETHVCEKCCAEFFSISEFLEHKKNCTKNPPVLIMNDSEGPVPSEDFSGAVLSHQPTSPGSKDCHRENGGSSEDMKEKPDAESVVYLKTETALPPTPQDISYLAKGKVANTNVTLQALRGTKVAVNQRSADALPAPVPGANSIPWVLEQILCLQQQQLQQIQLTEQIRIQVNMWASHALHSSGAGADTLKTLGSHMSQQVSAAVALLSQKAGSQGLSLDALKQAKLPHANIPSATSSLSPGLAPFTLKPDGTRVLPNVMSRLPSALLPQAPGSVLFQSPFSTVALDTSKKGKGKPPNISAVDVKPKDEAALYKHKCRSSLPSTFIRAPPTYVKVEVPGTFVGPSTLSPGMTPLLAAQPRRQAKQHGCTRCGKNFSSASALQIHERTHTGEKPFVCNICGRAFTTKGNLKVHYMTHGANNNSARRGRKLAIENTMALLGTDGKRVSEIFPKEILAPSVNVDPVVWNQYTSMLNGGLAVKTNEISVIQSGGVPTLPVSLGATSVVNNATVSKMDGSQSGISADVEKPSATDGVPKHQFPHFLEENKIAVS
Oligonucleotide,E-score
GGCAACCA,-0.214
GCAAAGAA,-0.0445
CCCCCCCA,-0.267
AAGGGGGG,-0.31
AATGCCTA,0.0701
GCTTAACC,-0.0897
GCCGGCAC,-0.404
CCGCTACA,-0.131
AGTCATCG,0.063
AGTGATGG,-0.00924
ATTGTTAG,0.213
CTCTGTTC,-0.0411
CACCCGGG,-0.34
CGGGGTCA,-0.223
AAATGCCG,-0.0446
GACAGGCC,-0.249
ACTGGCAC,-0.2

# Study 4
# Target: RNA binding protein fox-1 homolog 2, RRM domain, GST-SBP tag (RBFOX2, Homo sapiens, UniProt O43251-10, residues 100-194)
# Technique: RNA Bind-n-Seq
# Form: RNA
# Medium: in vitro
# Tested at: 365 nM
# Notes: natural RNA segment, single round, ends assumed
# Relative to: no-protein control
# Direction: higher = stronger binding
# Constant ends, left off below: GGGAGUUCUACAGUCCGACGAUC … UGGAAUUCUCGGGUGCCAA
# Construct (chain): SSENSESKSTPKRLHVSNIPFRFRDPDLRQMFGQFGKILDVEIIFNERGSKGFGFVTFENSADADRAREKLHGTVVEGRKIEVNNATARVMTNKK
Oligonucleotide,RBNS enrichment (R)
GGAAUGGUGUUGAGGCUACCAAGAAGAAAUCCAUGCAGCCACUUUGGGUUUUGUUAUAGGCAUCAGUCUAACAAGUCAUUAGGUCACUCGGGAAGGGGGAAAAAGUUUAA,1.26
CCUCAAAACAGAGAGAUGCUCUCUAGUGUUUAGAAAAGUAUGGUAGAACAAGUUGCUUAUAAUUGAGAGUGAGAGCAUGCCUUAAAUGUCAUGAUGGUAUGUGAAUAUGU,1.7
AGCAAGUACAACAAAGAAGCUCUUAGCCCCCCAAGACGCAAAUCCUUCAAGAAAUGGACCCCUCCUCGGUCACCUUUUAAUCUUGUUCAAGAAAUACUUUUCCAUGACCC,0.59
AGUCAGUCCAGCUCGGGACCGAUGCCUGCUGUGCCUUCCUGCUGAGGGACACCUGCUUAUUUUCCCCCGUGGGCCUCACUCUAUCCCUGAAAACAGUGAAUGUUAUAUGA,0.506
CGGGUAGCCAGAGGCUUUGAGCCUCAUUUCCUUGCUCUGACUUCAAUAAAGACUUUUCAAUCAAACCAACUACACUGUCUUCUUGUAGAGUUUCCUGGUGAAAGCUCUGG,0.292
GUCAUGGAACUGAACAUUCAUCGAUGGUCUCCAUGUAUUCAUUUAUUCACUUGUUCAUUCAAGUAUUUAUUGAAUACCUGCCUCAAGCUAGAGAGAAAAGAGAGUGCGCU,0.306
UUUAGGAAUAUGUUCAAUGCAAAGUAAAAAAAUAUGAAUUGUCCCCAAUCCCGGUCAUGCUUUUGCCACUUUGGCUUCUCCUGUGACCCCACCUUGACGGUGGGGCGUAG,0.896
UUAACUCUCCCUAUAUAUUAACUCUCAAGUGCUGUAUUUUAAAAUUCAGCCCGUUUUUUAAAAAAGCUAAAUACAGUAGCAGCCAGCAGCCAGUCACUAAGAAAGACAGU,0.593
GGACACACUAUCACCUAUUACAUUUUACUGAUUAACAAAUAAAUUGGAAUUUAAAAAUAUCGAUAUCACCAUGAUUUAAUCCAGAUCUGGGAUUAUGUAGCUAAACAUUG,0.439
AAUGUAAACCGCCUCCACGUGGCGGCAGACUUCCUAAGGCCCCAGCUCGCUGGCCUCGCGCUGGGCGGCUGGGAAUUCCACCUGAGAACAAGUCCCGCAAACCGGGGACG,0.187
GAAAGAACAUGGCUACCGUGAGACAGCCCUGUGGGCCCUGCUACCCCUCCUAUUUCUGCCUCCCUGCUGGGAGCUUUCCUGUUCCCUGGUGUUCCACGAAGGAGGCUCUU,0.334
CCAGUUUCUCCUGUACAAAUCCCUGGCUCCUCGUGGGUCCUCGGGACCCGUACCAUACCUGCAAUGGUGUACAGGGCCGUAAUGGCGAGCGUGAGGAUGGUGGACAGGUA,0.348

# Study 5
# Target: Interferon regulatory factor 5, full length, phosphomimetic (IRF5, Homo sapiens, UniProt Q13568-2, residues 1-514, K96S/S451D/S453D/S456D/S462D)
# Technique: protein-binding microarray
# Form: double-stranded DNA, one strand shown
# Medium: in vitro
# Tested at: 250 nM
# Notes: 60-bp whole probe
# With: salmon DNA 0.4 mg/ml
# Relative to: random background probes
# Direction: higher = stronger binding
# Constant ends, left off below: GCCTAGCAC … GTCTTGATTCGCTTGACGCTGCTG
Oligonucleotide,log fluorescence [z-score]
TTAGAACTGGGGACCGGATTAGTGCTA,-0.537
AGCTGTTTGAGAAATCAGATGGTGCTA,0.166
GCCGATCTCAGTATCGAGACGTGCTAG,1.87
TAAGGACTGGGACTGGGTTAGTGCTAG,-0.551
TCAGGTCTGGGTATTTTACTGTGCTAG,-0.389
TCATTTATGCACTCTTTAACTGTGCTA,0.72
TCATTCCTGATCTCTGGTCTTGTGCTA,0.538
TTTACTTTCTGAATGCTCCCGTGCTAG,4.99
AACGATCTCAGTCTCGAGACGTGCTAG,0.174
TTAGGATTCCTTTCCCTTTAGTGCTAG,0.944
AAGACTTTCTTTCAAATGAAGTGCTAG,2.91
GACGCTATCCTTTTCCTGACGTGCTAG,0.269
TTAGGAGTGCTTTTCCTTTAGTGCTAG,0.113
TTAGATTCCAGTTACGATTAGTGCTAG,0.713
TTAAGTTTCGGTTCCGGTTAGTGCTAG,10.9
TTAGGTATCGCGACTGGGTTAGTGCTA,0.278
TAAGGTATCGGTATCGGTTAGTGCTAG,8.75
ACACGGCTCTAAACTCATGTAGTGCTA,-0.156
TCACTTCTGGTGCTCATCTGGTGCTAG,0.464
GTAGGTCTCCTTCTCCTTTAGTGCTAG,-0.282
GACGAACTGGGGACTGGCGACGTGCTA,-0.523
CTAGATATCAGACTGGATTAGTGCTAG,0.143
TTAGATTCCACTTTCGATTAGTGCTAG,10.5
GACGAACTGAGACTGGACACGTGCTAG,-0.285
GAAGGTTTCCTTATCCTGACGTGCTAG,0.918

# Some of these lines once more (study 4):
Oligonucleotide,RBNS enrichment (R)
AGCAAGUACAACAAAGAAGCUCUUAGCCCCCCAAGACGCAAAUCCUUCAAGAAAUGGACCCCUCCUCGGUCACCUUUUAAUCUUGUUCAAGAAAUACUUUUCCAUGACCC,0.59
AGUCAGUCCAGCUCGGGACCGAUGCCUGCUGUGCCUUCCUGCUGAGGGACACCUGCUUAUUUUCCCCCGUGGGCCUCACUCUAUCCCUGAAAACAGUGAAUGUUAUAUGA,0.506
CGGGUAGCCAGAGGCUUUGAGCCUCAUUUCCUUGCUCUGACUUCAAUAAAGACUUUUCAAUCAAACCAACUACACUGUCUUCUUGUAGAGUUUCCUGGUGAAAGCUCUGG,0.292
GUCAUGGAACUGAACAUUCAUCGAUGGUCUCCAUGUAUUCAUUUAUUCACUUGUUCAUUCAAGUAUUUAUUGAAUACCUGCCUCAAGCUAGAGAGAAAAGAGAGUGCGCU,0.306
UUUAGGAAUAUGUUCAAUGCAAAGUAAAAAAAUAUGAAUUGUCCCCAAUCCCGGUCAUGCUUUUGCCACUUUGGCUUCUCCUGUGACCCCACCUUGACGGUGGGGCGUAG,0.896
UUAACUCUCCCUAUAUAUUAACUCUCAAGUGCUGUAUUUUAAAAUUCAGCCCGUUUUUUAAAAAAGCUAAAUACAGUAGCAGCCAGCAGCCAGUCACUAAGAAAGACAGU,0.593
GGACACACUAUCACCUAUUACAUUUUACUGAUUAACAAAUAAAUUGGAAUUUAAAAAUAUCGAUAUCACCAUGAUUUAAUCCAGAUCUGGGAUUAUGUAGCUAAACAUUG,0.439
AAUGUAAACCGCCUCCACGUGGCGGCAGACUUCCUAAGGCCCCAGCUCGCUGGCCUCGCGCUGGGCGGCUGGGAAUUCCACCUGAGAACAAGUCCCGCAAACCGGGGACG,0.187
